Measured values collected from several papers.
Each line is one published result; not all experiments were run side by side. ± gives the spread as reported.
ADRA1D: Alpha-1D adrenergic receptor (ADRA1D, Homo sapiens, UniProt P25100)
UniProt P25100, sequence (whole entry, looked up): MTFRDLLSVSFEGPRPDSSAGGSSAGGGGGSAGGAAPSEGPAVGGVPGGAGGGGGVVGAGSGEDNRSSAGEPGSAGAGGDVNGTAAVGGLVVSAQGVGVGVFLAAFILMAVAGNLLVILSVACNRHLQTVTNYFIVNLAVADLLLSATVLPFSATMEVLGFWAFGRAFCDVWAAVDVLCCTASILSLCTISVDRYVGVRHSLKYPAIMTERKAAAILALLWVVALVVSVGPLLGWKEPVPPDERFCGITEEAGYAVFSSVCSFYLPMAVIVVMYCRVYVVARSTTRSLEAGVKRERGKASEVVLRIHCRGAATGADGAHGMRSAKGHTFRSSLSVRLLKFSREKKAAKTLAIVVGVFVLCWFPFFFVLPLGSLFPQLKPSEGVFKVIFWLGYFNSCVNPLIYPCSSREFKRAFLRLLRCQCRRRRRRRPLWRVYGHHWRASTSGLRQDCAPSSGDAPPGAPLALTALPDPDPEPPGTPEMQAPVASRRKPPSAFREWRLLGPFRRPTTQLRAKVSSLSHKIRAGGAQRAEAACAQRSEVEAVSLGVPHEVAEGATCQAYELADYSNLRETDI
ache: Acetylcholinesterase (ache, Electrophorus electricus, UniProt O42275)
UniProt O42275, sequence (whole entry, looked up): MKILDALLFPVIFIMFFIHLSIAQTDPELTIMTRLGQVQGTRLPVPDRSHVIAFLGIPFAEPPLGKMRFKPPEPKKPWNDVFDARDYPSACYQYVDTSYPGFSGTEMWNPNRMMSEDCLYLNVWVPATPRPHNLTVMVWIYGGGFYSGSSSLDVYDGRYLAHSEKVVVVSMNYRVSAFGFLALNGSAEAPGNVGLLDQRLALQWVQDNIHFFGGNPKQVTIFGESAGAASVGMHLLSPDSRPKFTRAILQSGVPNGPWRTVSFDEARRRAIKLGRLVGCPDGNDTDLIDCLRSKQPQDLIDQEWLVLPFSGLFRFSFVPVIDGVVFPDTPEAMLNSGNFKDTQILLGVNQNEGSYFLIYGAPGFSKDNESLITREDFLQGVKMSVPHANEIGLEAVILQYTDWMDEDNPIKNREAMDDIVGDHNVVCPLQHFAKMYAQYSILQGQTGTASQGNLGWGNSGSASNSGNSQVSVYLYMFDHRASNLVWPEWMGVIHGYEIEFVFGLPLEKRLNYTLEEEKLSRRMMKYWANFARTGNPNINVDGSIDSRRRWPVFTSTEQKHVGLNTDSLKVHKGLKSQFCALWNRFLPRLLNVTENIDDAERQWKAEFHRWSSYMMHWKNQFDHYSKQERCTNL
dcp2 with Dcp1: mRNA decapping complex subunit 2, with Dcp1 (dcp2, Schizosaccharomyces pombe, UniProt O13828)
UniProt O13828, sequence (whole entry, looked up): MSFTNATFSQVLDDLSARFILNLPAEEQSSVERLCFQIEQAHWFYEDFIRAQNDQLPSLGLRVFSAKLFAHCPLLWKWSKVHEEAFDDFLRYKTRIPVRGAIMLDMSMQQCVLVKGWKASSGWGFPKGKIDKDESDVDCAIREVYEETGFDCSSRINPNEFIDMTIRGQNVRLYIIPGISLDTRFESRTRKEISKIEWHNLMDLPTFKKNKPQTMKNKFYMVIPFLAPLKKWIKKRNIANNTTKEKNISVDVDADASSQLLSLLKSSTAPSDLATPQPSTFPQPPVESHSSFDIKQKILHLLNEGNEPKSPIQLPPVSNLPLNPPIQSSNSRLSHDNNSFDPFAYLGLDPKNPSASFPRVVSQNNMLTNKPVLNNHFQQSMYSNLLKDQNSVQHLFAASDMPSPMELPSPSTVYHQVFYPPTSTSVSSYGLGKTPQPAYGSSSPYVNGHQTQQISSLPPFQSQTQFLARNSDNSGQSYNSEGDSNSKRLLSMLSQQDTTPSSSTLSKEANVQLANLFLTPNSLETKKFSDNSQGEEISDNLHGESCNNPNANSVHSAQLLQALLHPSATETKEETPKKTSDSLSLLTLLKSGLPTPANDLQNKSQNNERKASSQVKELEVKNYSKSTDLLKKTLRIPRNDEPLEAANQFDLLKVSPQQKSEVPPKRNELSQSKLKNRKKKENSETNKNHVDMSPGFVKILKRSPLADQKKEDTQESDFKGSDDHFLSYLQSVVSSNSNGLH
UniProt P42336, sequence (whole entry, looked up): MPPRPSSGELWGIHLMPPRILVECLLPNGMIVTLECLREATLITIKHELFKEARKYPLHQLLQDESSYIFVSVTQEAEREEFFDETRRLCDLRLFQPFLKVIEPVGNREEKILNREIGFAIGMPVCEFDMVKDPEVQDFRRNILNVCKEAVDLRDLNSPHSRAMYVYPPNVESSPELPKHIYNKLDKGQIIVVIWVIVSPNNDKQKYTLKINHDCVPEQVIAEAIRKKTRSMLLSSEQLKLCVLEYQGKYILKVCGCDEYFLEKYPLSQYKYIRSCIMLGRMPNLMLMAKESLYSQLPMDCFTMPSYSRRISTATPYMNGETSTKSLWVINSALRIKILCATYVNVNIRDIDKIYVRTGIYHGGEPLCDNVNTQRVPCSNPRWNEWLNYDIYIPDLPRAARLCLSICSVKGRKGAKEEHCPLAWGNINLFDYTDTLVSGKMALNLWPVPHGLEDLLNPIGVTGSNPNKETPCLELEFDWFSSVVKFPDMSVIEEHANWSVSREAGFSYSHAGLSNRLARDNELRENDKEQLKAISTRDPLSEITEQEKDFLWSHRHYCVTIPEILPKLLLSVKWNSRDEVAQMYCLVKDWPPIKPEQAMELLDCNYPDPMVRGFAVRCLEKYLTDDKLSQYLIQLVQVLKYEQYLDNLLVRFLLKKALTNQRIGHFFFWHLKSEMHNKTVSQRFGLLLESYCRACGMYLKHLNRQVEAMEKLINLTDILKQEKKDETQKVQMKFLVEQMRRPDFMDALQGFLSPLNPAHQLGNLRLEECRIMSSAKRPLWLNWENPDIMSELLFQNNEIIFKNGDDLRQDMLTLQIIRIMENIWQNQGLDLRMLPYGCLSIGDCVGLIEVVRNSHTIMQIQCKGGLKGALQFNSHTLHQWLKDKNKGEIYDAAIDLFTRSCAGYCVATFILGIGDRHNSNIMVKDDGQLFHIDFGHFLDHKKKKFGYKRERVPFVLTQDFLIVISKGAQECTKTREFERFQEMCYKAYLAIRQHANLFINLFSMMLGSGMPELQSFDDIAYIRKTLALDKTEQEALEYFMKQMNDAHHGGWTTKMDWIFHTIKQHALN
UniProt Q9Y2I7, sequence (whole entry, looked up): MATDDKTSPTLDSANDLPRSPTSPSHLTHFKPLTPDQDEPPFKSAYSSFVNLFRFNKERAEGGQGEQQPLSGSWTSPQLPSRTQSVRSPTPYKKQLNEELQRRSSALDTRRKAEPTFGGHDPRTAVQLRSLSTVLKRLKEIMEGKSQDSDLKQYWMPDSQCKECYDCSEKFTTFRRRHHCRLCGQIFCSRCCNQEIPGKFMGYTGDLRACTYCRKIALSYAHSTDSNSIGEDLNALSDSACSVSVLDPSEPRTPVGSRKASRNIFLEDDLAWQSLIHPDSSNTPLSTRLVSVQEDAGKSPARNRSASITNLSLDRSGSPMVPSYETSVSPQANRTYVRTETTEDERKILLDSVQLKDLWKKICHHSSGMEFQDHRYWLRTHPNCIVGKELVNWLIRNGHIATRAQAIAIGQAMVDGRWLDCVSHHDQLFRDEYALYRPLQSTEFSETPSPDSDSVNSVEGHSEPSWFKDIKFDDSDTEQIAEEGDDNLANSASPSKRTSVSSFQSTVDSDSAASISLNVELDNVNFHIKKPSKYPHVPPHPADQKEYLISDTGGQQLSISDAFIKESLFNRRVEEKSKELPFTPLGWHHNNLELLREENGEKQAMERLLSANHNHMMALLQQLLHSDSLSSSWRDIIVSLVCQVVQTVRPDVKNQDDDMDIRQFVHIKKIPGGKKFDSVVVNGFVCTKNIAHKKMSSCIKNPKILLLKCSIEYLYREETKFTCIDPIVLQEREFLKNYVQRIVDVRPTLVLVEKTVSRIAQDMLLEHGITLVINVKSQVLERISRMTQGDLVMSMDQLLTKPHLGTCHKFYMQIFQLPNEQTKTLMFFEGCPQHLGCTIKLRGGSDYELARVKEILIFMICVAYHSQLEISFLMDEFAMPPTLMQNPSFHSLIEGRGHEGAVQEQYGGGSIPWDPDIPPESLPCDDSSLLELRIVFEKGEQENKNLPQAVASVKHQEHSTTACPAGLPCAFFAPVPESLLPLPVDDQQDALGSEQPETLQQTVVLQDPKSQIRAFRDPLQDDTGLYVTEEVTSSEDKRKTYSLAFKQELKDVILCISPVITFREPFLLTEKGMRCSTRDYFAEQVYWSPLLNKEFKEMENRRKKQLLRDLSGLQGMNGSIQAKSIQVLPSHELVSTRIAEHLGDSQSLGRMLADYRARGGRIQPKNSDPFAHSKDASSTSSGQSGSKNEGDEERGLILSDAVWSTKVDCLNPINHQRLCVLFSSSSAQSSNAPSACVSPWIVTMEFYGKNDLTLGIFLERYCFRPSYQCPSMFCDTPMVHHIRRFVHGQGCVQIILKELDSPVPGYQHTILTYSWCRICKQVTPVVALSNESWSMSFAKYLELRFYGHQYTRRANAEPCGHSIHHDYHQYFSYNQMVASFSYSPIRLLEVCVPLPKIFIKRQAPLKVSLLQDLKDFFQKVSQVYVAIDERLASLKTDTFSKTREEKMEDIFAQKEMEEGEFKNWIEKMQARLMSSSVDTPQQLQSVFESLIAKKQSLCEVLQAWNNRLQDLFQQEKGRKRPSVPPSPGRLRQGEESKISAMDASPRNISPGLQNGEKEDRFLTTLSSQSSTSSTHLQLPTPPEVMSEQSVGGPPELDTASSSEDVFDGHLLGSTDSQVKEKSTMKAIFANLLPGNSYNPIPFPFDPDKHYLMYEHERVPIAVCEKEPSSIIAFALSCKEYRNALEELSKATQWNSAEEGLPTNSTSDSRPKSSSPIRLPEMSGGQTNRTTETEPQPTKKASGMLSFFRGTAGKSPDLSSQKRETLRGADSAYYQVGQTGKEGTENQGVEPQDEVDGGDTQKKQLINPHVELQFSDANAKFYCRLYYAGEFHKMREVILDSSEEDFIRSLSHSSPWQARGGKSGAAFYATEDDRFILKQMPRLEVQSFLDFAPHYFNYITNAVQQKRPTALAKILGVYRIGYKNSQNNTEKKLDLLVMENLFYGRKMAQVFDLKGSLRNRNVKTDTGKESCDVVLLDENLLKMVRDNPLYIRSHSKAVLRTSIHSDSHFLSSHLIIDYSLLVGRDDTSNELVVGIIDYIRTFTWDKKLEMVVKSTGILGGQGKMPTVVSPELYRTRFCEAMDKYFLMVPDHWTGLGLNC

Structure (SMILES) | target | test | system | setting | inhibition [%]
CCC1CC(c2ccc(C(=O)O)cc2C)=NN1c1ccc(C#N)c(Cl)c1 (centres unmarked) | EHMT1 (Homo sapiens, UniProt Q9H9B1) | enzyme activity, inhibitor | – | 10 µM | 3
CN[C@@H]1[C@H](O)[C@H](NC)[C@H]2O[C@]3(O)[C@H](O[C@@H]2[C@H]1O)O[C@H](C)C[C@H]3NC(=O)Cc1ccc(Cl)cn1 | ADRA1D | ligand displacement, radioligand | – | 10 µM | 1
CS(C)(=O)=Nc1ccc(-c2ccc(-c3nc4cc(O[C@@H]5CO[C@H]6[C@@H]5OC[C@H]6O)[nH]c4cc3F)cc2)cc1 | PTPN1 (Homo sapiens, UniProt P18031) | enzyme activity, inhibitor | – | 10 µM | -1
O=C(NC1CCN(c2ncnc3[nH]cnc23)CC1)c1cccc(NS(=O)(=O)c2ccc(C(F)(F)F)cc2)c1 | Genome polyprotein, NS5 methyltransferase domain (Zika virus, UniProt Q32ZE1) | NS5 enzyme activity, inhibitor | – | 6.25 µM | -4.08
CN(/N=C/c1ccccc1C(=O)O)c1nc(-c2ccccc2Cl)cs1 | PIK3CA (Homo sapiens, UniProt P42336) | enzyme activity, inhibitor | – | 1 µM | 11.9
O=[N+]([O-])c1ccc(-n2cc(CCS(=O)(=O)F)nn2)cc1 | ache | Ellman | – | 20 µM | 46 ± 1.8
C[n+]1cn([C@@H]2O[C@H](COP(=O)([O-])CP(=O)(O)O)[C@@H](O)[C@H]2O)c2nc(N)nc(O)c21 | dcp2 with Dcp1 | – | – | 200 µM, 0.25 h | 16.2
Cc1ccc2c(n1)c(-c1cccc(S(C)(=O)=O)c1)c(C)n2C/C(F)=C/CN | ADRA1D | off-target safety screen | – | 10 µM | -7
CC(=O)NC[C@@H]1[C@@H](O)C[C@H]2[C@H](O)C[C@@H](CO)N12 | human placental β-N-acetylglucosaminidase | – | – | 0.0214 µM, run 2, together with: p-nitrophenyl GlcNAc | 32.2
CCc1nc2ccc(C(=O)NCCOc3ccc(OC)cc3)cn2c1N(C)Cc1ccc(OC)cc1 | ache | enzyme activity, inhibitor, Ellman | – | 5 µM | 72.2
O=S(=O)(F)CCc1cn(-c2ccc(F)cc2)nn1 | ache | Ellman | – | 20 µM | 36.1 ± 3.3
OB(O)c1ccccc1-c1ccc(-c2ccccc2)cc1 | Beta-lactamase (ampC, Escherichia coli K-12, UniProt P00811) | enzyme activity, inhibitor, CENTA hydrolysis absorbance | – | 10 µM | < 10
CC(C)[C@H]1NC(=O)C[C@H]2/C=C/CCSSC[C@@H](NC1=O)C(=O)N[C@H](Cc1cccc3ccccc13)C(=O)NCC(=O)O2 | DDR2 (Homo sapiens, UniProt Q16832) | enzyme activity, inhibitor | – | 10 µM | 5.8
CN[C@@H]1[C@H](O)[C@H](NC)[C@H]2O[C@]3(O)[C@H](O[C@@H]2[C@H]1O)O[C@H](C)C[C@H]3NC(=O)Cc1cc(Cl)ccn1 | ADORA2A (Homo sapiens, UniProt P29274) | cell-free assay | – | 10 µM | -20
NC1CCCC1 | ache | enzyme activity, inhibitor, Ellman | – | 20 µM | 32.5
O=C(CN1CN(c2ccccc2)C2(CCN(C(=O)c3cnc4[nH]ncc4c3)CC2)C1=O)NCC(F)(F)F | CIT (Homo sapiens, UniProt O14578) | inhibitor | – | concentration not given | < 50
CN(C)[C@H]1C[C@@]23CC[C@@]4(O2)C(=CC[C@]2(C)[C@@H](c5ccc6ccncc6c5)CC[C@H]24)C=C3[C@@H](O)[C@@H]1O | PIKFYVE (Homo sapiens, UniProt Q9Y2I7) | ATP probe labelling, inhibitor, KiNativ profiling | – | 0.1 µM | -3.9
Cc1cc(C)cc(-n2cc(CCS(=O)(=O)F)nn2)c1 | ache | Ellman | – | 20 µM | 35.6 ± 2.9
C[C@H](NCc1ccc(-c2ccc(C(F)(F)F)cc2)cc1)C(N)=O | MARK3 (Homo sapiens, UniProt P27448) | cell-free assay, competition with immobilised ligand | – | 1 µM | 2
N[C@H](C(=O)N1CCCC1)C1CCN(c2nccc3c(-c4ncc(Cl)cc4Cl)cccc23)CC1 | GABA transporter | binding, radioligand binding | – | 10 µM | -29
O=C(O)c1ccccc1/C=N/Nc1nc(-c2ccccc2Cl)cs1 | Aurora kinase C (AURKC, Homo sapiens, UniProt Q9UQB9) | enzyme activity, inhibitor | – | 1 µM | -3.94
O=C(N1CCCCC1)n1ccnn1 | Acylamino-acid-releasing enzyme (Apeh, Mus musculus, UniProt Q8R146) | serine hydrolase activity, inhibitor, competitive gel-based ABPP | mouse T-cell proteome | 1 µM, 30 min, 37 °C | < 50
C[n+]1cn([C@@H]2O[C@H](COP(=O)([S-])OP(=O)(O)OP(=O)(O)OP(=O)([S-])OC[C@H]3O[C@@H](n4c[n+](C)c5c(O)nc(N)nc54)[C@H](O)[C@@H]3O)[C@@H](O)[C@H]2O)c2nc(N)nc(O)c21 (some centres unmarked) | dcp2 with Dcp1 | – | – | 200 µM, 0.5 h | 59.2
COc1ccc(F)cc1S(=O)(=O)Nc1cnc2c(c1)C(=O)NCCO2 | protein kinase C (non-selective) | enzyme activity | – | 10 µM | 1
COc1ccccc1N1CCN(CCCCN2CCCc3ccccc3C2=O)CC1 | HTR7 (Homo sapiens, UniProt P34969) | radioligand binding | – | concentration not given, together with: [3H]LSD | 99.1
C=CC(=O)Nc1cc(-c2nn(C3CCC(N4CCN(C(C)=O)CC4)CC3)c3ncnc(N)c23)ccc1Oc1ccccc1 (centres unmarked) | MAP3K21 (Homo sapiens, UniProt Q5TCX8) | inhibitor, KiNativ profiling | biochemical | 2 µM | 1

A few entries again:
Structure (SMILES) | target | test | system | setting | inhibition [%]
COc1ccc(F)cc1S(=O)(=O)Nc1cnc2c(c1)C(=O)NCCO2 | protein kinase C (non-selective) | enzyme activity | – | 10 µM | 1
COc1ccccc1N1CCN(CCCCN2CCCc3ccccc3C2=O)CC1 | HTR7 (Homo sapiens, UniProt P34969) | radioligand binding | – | concentration not given, together with: [3H]LSD | 99.1
C=CC(=O)Nc1cc(-c2nn(C3CCC(N4CCN(C(C)=O)CC4)CC3)c3ncnc(N)c23)ccc1Oc1ccccc1 (centres unmarked) | MAP3K21 (Homo sapiens, UniProt Q5TCX8) | inhibitor, KiNativ profiling | biochemical | 2 µM | 1
